Measurements gathered from unrelated publications.
Each numbered part is a random draw from the data of one study; scales do not carry over between parts.

Sample 1 — method: protein binding microarray; form: double-stranded DNA, one strand shown; matrix: in vitro; concentration: not given; reference: not given; direction: higher = stronger binding
Target: Histone acetyltransferase KAT6A, winged helix 1, GST fusion (KAT6A, Homo sapiens, UniProt Q92794, residues 1-85)
Notes: 8-mer, flanks averaged, mean of 2 arrays, mostly near background
Construct (chain): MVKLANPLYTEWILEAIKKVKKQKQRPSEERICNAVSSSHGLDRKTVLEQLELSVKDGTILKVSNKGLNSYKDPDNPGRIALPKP
| Oligonucleotide | E-score |
| --- | --- |
| GCAACGAA | -0.088 |
| AGCCCACA | -0.288 |
| CCGTGTAA | 0.11 |
| ATTTCTTC | -0.223 |
| AATAGTAG | -0.11 |
| AATAATAT | -0.0731 |
| ATCCATAC | -0.175 |
| CCTGCATC | -0.353 |
| ATGTGGAC | -0.0787 |
| GCATGTGA | 0.0593 |

Sample 2 — method: protein-binding microarray; form: double-stranded DNA, one strand shown; matrix: in vitro; concentration: not given; direction: higher = stronger binding
Target: Max-binding protein MNT, bHLH-zipper, MAX partner unstated (MNT, Homo sapiens, UniProt Q99583, residues 220-300)
Notes: k-mer, scored over probes, only values ≥0.25
Residues (chain): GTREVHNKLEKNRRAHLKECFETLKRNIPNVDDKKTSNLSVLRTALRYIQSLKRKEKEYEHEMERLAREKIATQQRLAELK
| Oligonucleotide | E-score |
| --- | --- |
| CACGAGAC | 0.385 |
| ACATCGTG | 0.341 |
| GCACCCAC | 0.359 |
| ACACGATG | 0.32 |
| ACACCACG | 0.316 |
| CTCCCCAC | 0.348 |

Sample 3 — method: aptamer microarray, sandwich; form: DNA with 2'F-ANA; matrix: in vitro; concentration: 200 nM; with: Cy3 exosite-II aptamer, 400 nM; direction: higher = stronger binding; oligonucleotide: GGTTGGTGTGGTTGG
Target: Prothrombin, mature alpha-thrombin (F2, Homo sapiens, UniProt P00734)
Notes: whole 15-mer aptamer, many near background
| Modification | mean fluorescence intensity |
| --- | --- |
| 2'F-ANA at 2 10 13 14 | 90.3 a.u. |
| 2'F-ANA at 3 5 8 9 10 14 15 | 50.4 a.u. |
| 2'F-ANA at 3 4 9 11 12 13 14 | 366 a.u. |
| 2'F-ANA at 3 6 7 8 9 10 11 12 14 | 375 a.u. |
| 2'F-ANA at 2 3 6 7 8 14 15 | 395 a.u. |
| 2'F-ANA at 1 3 4 5 6 7 10 13 14 15 | 45.6 a.u. |
| 2'F-ANA at 2 5 6 10 13 14 15 | 57.7 a.u. |
| 2'F-ANA at 1 2 3 8 9 10 12 14 15 | 58.1 a.u. |
| 2'F-ANA at 1 2 5 7 8 12 15 | 133 a.u. |
| 2'F-ANA at 1 2 3 4 6 7 11 12 14 | 68.1 a.u. |
| 2'F-ANA at 2 4 5 8 9 10 11 13 | 53 a.u. |

Single results of other studies
| Substance | target | test | test system | setting | scale | measurement | result |
| --- | --- | --- | --- | --- | --- | --- | --- |
| PhoQ, residues 284 288 289 292 302 303 TLMATV | PhoP, residues 12 14 15 18 19 NQCAL (Escherichia coli, UniProt P23836) | Sort-seq, refers to: YFP reporter | E. coli | PhoQ-PhoP variant library, with: 10 µM Mg2+ | reference: high Mg2+ state, higher = stronger signaling | fold induction | 4.07 |

Excerpt of the above (sample 3):
| Modification | mean fluorescence intensity |
| --- | --- |
| 2'F-ANA at 1 2 3 8 9 10 12 14 15 | 58.1 a.u. |
| 2'F-ANA at 1 2 5 7 8 12 15 | 133 a.u. |
